Experimental data collected from several papers.
A part holds a random share of what one study measured.
Chain of UniProt Q9HC98 (whole entry, looked up): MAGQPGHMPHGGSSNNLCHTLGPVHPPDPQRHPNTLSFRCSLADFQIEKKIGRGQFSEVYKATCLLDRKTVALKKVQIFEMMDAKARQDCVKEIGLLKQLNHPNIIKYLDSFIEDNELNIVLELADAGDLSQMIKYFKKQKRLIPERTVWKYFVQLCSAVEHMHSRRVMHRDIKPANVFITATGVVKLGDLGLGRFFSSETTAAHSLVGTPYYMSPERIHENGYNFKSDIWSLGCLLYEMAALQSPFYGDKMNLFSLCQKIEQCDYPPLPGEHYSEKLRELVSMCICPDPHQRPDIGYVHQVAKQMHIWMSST
Chain of UniProt Q7L7X3 (whole entry, looked up): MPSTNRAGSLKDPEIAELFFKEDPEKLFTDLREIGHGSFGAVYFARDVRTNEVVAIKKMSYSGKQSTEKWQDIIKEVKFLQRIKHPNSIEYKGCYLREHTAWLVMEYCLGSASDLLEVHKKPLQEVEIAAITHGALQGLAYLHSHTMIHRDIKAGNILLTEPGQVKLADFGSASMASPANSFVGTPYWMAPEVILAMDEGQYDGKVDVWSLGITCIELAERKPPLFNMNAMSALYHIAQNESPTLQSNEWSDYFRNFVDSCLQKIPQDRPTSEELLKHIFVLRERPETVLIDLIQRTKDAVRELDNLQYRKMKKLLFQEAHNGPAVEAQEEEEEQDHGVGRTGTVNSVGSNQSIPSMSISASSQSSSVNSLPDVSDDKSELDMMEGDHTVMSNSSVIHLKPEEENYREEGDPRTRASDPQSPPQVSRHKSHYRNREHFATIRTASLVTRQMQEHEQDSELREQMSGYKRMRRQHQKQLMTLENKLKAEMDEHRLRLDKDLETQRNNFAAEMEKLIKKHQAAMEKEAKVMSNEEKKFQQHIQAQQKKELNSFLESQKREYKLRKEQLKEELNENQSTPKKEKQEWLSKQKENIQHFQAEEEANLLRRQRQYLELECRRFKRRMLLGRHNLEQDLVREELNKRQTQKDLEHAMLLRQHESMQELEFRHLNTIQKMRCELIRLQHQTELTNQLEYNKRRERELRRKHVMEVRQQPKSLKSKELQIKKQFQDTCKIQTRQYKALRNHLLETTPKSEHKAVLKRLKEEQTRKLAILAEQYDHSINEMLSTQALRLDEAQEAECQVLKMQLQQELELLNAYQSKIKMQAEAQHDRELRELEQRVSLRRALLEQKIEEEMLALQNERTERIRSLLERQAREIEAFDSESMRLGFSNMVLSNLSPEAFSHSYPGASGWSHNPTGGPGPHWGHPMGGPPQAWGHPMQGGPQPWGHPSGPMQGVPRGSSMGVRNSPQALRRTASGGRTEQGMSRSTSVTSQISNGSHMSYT
Chain of UniProt Q9H4B4 (whole entry, looked up): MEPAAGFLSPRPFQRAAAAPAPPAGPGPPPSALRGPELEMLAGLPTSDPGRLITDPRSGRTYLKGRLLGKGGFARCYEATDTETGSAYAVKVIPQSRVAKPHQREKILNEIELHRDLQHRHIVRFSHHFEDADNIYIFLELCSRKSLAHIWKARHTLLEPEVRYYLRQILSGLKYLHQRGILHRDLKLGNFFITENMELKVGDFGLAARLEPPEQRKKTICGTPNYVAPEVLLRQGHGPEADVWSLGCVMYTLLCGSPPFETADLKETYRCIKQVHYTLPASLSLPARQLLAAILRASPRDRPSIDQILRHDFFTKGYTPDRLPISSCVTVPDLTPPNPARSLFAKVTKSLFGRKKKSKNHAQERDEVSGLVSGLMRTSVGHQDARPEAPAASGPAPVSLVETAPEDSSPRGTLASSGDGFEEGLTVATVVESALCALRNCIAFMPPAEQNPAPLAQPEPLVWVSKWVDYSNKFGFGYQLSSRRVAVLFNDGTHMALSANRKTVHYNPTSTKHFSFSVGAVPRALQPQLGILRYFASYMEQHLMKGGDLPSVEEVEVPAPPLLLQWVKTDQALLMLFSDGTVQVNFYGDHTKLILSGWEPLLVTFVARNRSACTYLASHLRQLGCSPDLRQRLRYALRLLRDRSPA
Chain of UniProt Q9Y5S2 (whole entry, looked up): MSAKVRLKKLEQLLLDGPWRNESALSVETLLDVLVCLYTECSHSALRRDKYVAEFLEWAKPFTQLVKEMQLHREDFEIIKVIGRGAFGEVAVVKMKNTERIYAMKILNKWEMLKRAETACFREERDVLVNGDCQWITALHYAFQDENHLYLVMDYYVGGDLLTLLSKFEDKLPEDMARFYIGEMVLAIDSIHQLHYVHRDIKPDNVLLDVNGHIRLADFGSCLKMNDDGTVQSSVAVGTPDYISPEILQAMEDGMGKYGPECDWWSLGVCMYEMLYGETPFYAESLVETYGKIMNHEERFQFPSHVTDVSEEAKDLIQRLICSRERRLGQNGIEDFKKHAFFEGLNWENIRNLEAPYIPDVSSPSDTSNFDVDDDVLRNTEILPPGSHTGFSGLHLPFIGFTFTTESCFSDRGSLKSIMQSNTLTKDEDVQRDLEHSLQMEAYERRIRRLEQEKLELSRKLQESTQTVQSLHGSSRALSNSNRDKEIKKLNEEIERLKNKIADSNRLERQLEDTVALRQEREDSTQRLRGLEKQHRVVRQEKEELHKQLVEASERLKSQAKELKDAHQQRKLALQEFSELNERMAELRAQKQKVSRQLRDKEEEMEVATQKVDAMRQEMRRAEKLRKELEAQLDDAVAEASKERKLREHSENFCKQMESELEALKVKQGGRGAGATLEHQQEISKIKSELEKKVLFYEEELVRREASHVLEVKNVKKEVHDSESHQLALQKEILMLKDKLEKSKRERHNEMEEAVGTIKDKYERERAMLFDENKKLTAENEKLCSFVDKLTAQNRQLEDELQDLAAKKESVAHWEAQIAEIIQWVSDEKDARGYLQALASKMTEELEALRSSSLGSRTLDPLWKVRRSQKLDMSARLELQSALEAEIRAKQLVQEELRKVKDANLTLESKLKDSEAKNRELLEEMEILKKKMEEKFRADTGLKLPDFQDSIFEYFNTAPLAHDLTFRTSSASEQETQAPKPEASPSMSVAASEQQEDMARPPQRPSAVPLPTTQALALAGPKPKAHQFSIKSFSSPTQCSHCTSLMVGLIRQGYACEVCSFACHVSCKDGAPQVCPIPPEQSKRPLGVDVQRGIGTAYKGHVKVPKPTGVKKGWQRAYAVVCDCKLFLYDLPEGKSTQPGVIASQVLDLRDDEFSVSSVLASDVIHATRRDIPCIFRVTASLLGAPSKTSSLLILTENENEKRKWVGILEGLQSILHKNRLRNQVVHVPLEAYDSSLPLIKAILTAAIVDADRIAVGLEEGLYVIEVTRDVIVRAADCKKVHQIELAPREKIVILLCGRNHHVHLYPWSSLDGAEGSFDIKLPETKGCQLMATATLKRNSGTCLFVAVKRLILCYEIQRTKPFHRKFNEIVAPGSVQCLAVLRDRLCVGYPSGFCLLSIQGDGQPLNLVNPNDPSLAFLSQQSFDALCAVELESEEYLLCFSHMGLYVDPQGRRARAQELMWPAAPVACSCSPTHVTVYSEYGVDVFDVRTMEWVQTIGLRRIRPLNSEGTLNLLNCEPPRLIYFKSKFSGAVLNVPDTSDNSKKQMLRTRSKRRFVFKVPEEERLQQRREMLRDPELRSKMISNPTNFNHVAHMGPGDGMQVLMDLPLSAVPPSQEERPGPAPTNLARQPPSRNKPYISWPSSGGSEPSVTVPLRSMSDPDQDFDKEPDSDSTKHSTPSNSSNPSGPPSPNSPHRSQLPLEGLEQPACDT
Chain of UniProt P28482 (whole entry, looked up): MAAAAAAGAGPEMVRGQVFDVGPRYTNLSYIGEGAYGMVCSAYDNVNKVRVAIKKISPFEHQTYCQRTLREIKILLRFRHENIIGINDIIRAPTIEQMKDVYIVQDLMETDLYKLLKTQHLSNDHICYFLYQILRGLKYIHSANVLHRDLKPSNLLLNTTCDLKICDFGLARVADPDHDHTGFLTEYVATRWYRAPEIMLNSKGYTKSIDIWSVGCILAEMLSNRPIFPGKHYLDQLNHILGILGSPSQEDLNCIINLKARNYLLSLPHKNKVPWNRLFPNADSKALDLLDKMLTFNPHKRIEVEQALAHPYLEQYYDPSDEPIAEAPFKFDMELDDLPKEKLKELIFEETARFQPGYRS
Chain of UniProt Q16832 (whole entry, looked up): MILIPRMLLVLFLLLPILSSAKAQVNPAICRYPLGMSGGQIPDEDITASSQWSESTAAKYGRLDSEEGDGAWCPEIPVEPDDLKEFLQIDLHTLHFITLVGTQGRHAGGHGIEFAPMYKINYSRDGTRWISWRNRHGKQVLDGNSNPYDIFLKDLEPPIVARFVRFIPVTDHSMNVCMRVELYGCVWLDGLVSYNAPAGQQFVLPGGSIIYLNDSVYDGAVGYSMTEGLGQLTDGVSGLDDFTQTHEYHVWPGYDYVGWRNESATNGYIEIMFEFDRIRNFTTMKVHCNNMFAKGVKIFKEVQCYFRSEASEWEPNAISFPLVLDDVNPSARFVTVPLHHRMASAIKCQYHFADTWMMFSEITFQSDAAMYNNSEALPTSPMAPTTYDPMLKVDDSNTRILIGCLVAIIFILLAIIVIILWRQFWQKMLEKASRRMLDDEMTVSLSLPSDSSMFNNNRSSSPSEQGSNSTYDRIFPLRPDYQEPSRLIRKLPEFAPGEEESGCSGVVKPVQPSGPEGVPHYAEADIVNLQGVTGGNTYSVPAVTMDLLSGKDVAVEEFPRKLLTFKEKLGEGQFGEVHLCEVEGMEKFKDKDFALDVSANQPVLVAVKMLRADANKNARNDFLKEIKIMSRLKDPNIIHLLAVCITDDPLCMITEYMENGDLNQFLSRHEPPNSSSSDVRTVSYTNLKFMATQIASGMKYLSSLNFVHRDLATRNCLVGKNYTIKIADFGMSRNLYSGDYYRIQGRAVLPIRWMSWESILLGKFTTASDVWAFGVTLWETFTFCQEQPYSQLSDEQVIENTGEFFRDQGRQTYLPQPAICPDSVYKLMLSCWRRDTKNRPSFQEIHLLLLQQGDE

Series 1
Structure (SMILES): CCOCCn1cc(C(=O)Nc2ccc(-n3nc(-c4cccnc4)cc3C(F)(F)F)cn2)ccc1=O
Observed: cell-free assay
Technique: competition with immobilised ligand
Tested at: 1 µM
| target | remaining binding |
| --- | --- |
| SNRK (Homo sapiens, UniProt Q9NRH2) | 88% |
| Ribosomal protein S6 kinase alpha-3, N-terminal kinase domain (RPS6KA3, Homo sapiens, UniProt P51812) | 84% |
| KIT (Homo sapiens, UniProt P10721, A829P) | 100% |
| TAOK1 (Homo sapiens, UniProt Q7L7X3) | 87% |
| LATS2 (Homo sapiens, UniProt Q9NRM7) | 65% |
| TNK1 (Homo sapiens, UniProt Q13470) | 83% |
| MAP3K14 (Homo sapiens, UniProt Q99558) | 69% |
| CLK1 (Homo sapiens, UniProt P49759) | 100% |

Series 2
SMILES: O=C(Nc1ccccc1)Nc1cccc(Oc2ccc3nccn3n2)c1
Tested at: 1 µM
| target | assay | conditions | how to read | remaining binding |
| --- | --- | --- | --- | --- |
| BMX (Homo sapiens, UniProt P51813) | competitive binding panel | – | baseline: vehicle | 100% |
| PNCK (Homo sapiens, UniProt Q6P2M8) | competitive binding | CAMK1B | – | 100% |
| MKNK2 (Homo sapiens, UniProt Q9HBH9) | competitive binding panel | – | baseline: vehicle | 100% |
| PRKAA2 (Homo sapiens, UniProt P54646) | competitive binding | AMPK-alpha2 | – | 100% |
| NEK6 (Homo sapiens, UniProt Q9HC98) | competitive binding panel | – | baseline: vehicle | 100% |
| EPHB2 (Homo sapiens, UniProt P29323) | competitive binding panel | – | baseline: vehicle | 97% |

Series 3
Cell line: A-375
Tested at: 100 µM
Time: 18 h
| Compound | viability [%] |
| --- | --- |
| CCOC(=O)n1ccn(C)c1=S | 102 |
| O=C(/C=C/c1ccc(O)cc1)c1ccc(O)cc1O | 75.2 |
| O=C(O)c1cccnc1 | 85.9 |
| CC(COc1ccccc1)NC(C)C(O)c1ccc(O)cc1 (centres unmarked) | 102 |
| CCOC(=O)c1ccc(C#Cc2ccc3c(c2)C(C)(C)CCS3)nc1 | 60.9 |
| CCCCC(=O)O[C@]1(C(=O)CO)CC[C@H]2[C@@H]3CCC4=CC(=O)CC[C@]4(C)[C@H]3[C@@H](O)C[C@@]21C | 52.8 |
| O=C1O[C@H]([C@@H](O)CO)C(O)=C1O | 100 |
| COc1cc2c(Oc3ccc4[nH]c(C)cc4c3F)ncnc2cc1OCCCN1CCCC1 | 9.34 |

Series 4
Compound: CC(C)n1cnc2c(Nc3cccc(Cl)c3)nc(NCCO)nc21
Observed: enzyme activity
Mode: inhibitor
Tested at: 0.5 µM
Baseline: control
| target | remaining activity [%] |
| --- | --- |
| MINK1 (Homo sapiens, UniProt Q8N4C8) | 86.3 |
| CLK4 (Homo sapiens, UniProt Q9HAZ1) | 36.1 |
| MAPK1 (Homo sapiens, UniProt P28482) | 107 |
| DCLK2 (Homo sapiens, UniProt Q8N568) | 97.8 |
| CDC42BPB (Homo sapiens, UniProt Q9Y5S2) | 109 |
| MET (Homo sapiens, UniProt P08581) | 83.9 |
| AKT2 (Homo sapiens, UniProt P31751) | 92.4 |
| DDR2 (Homo sapiens, UniProt Q16832) | 93.3 |
| NEK3 (Homo sapiens, UniProt P51956) | 92.6 |
| PRKG2 (Homo sapiens, UniProt Q13237) | 82.7 |
| PLK3 (Homo sapiens, UniProt Q9H4B4) | 48.5 |
| CLK3 (Homo sapiens, UniProt P49761) | 77.8 |
| PAK3 (Homo sapiens, UniProt O75914) | 96.7 |

A few entries again (series 1):
| target | remaining binding |
| --- | --- |
| CLK1 (Homo sapiens, UniProt P49759) | 100% |
| LATS2 (Homo sapiens, UniProt Q9NRM7) | 65% |
| SNRK (Homo sapiens, UniProt Q9NRH2) | 88% |
| TNK1 (Homo sapiens, UniProt Q13470) | 83% |
